Experimental data collected from several papers.
A part holds a random share of what one study measured.
Chain of UniProt Q8IY84 (whole entry, looked up): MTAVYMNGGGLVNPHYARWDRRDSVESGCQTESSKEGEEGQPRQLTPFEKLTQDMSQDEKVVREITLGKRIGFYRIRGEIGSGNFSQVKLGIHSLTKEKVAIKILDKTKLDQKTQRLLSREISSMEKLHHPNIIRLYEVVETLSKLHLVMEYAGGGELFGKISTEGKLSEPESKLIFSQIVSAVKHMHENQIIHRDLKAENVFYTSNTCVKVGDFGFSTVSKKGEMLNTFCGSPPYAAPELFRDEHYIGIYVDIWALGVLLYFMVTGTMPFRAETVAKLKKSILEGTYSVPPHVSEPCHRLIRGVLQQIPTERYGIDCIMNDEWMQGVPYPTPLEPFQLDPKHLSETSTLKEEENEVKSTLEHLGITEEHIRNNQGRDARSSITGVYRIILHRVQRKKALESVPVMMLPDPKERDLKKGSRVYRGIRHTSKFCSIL
Chain of UniProt Q9Y2I7 (whole entry, looked up): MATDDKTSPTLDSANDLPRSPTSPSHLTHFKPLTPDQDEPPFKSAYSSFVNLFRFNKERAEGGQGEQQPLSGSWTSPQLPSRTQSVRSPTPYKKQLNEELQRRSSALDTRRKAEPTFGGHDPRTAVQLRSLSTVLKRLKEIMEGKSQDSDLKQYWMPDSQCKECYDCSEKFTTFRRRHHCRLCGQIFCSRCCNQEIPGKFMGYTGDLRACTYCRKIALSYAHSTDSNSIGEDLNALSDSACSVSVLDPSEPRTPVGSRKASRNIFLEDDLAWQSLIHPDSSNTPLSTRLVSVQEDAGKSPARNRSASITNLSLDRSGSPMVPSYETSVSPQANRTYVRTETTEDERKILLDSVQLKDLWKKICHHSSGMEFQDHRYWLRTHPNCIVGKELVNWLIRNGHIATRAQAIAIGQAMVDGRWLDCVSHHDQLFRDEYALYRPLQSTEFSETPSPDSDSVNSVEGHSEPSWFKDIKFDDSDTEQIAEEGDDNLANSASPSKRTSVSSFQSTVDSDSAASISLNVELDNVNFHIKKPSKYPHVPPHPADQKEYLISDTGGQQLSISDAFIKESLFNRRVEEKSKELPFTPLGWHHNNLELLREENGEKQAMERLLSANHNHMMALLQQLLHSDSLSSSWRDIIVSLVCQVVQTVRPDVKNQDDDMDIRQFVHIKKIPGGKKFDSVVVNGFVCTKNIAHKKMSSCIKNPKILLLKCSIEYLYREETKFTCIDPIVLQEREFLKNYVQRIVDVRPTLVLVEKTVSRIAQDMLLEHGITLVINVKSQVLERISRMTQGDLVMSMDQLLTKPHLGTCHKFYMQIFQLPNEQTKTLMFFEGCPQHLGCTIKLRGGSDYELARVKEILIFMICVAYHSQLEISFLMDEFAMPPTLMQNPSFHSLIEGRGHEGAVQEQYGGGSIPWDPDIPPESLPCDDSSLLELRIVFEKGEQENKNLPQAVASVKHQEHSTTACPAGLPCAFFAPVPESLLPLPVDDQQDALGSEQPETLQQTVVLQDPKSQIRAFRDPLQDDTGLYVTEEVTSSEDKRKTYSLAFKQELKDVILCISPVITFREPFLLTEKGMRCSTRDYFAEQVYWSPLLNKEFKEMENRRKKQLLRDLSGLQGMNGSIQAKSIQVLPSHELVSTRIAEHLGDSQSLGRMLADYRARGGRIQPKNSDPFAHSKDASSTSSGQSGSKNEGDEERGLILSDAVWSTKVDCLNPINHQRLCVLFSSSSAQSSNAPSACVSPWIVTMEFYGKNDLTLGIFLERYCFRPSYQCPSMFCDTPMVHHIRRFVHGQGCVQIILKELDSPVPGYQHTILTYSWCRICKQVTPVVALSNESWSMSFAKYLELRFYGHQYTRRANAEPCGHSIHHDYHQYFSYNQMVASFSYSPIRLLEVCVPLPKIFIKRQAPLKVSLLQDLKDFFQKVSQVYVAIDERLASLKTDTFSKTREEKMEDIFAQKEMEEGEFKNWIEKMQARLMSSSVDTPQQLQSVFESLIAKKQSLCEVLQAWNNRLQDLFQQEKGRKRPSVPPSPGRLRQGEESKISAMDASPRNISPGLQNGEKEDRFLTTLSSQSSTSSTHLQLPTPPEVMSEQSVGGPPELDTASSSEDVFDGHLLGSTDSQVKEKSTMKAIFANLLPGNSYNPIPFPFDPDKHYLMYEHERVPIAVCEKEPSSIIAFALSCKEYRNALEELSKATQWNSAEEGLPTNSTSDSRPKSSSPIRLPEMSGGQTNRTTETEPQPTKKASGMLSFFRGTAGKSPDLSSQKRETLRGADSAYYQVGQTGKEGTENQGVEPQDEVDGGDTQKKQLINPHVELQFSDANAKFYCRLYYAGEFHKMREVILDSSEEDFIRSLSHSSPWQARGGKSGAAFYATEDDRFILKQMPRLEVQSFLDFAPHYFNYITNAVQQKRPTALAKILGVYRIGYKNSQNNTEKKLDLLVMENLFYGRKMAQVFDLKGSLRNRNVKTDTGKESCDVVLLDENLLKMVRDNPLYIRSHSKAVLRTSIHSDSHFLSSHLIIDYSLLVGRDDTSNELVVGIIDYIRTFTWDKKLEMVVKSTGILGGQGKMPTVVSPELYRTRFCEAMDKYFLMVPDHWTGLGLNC
Chain of UniProt Q9H2G2 (whole entry, looked up): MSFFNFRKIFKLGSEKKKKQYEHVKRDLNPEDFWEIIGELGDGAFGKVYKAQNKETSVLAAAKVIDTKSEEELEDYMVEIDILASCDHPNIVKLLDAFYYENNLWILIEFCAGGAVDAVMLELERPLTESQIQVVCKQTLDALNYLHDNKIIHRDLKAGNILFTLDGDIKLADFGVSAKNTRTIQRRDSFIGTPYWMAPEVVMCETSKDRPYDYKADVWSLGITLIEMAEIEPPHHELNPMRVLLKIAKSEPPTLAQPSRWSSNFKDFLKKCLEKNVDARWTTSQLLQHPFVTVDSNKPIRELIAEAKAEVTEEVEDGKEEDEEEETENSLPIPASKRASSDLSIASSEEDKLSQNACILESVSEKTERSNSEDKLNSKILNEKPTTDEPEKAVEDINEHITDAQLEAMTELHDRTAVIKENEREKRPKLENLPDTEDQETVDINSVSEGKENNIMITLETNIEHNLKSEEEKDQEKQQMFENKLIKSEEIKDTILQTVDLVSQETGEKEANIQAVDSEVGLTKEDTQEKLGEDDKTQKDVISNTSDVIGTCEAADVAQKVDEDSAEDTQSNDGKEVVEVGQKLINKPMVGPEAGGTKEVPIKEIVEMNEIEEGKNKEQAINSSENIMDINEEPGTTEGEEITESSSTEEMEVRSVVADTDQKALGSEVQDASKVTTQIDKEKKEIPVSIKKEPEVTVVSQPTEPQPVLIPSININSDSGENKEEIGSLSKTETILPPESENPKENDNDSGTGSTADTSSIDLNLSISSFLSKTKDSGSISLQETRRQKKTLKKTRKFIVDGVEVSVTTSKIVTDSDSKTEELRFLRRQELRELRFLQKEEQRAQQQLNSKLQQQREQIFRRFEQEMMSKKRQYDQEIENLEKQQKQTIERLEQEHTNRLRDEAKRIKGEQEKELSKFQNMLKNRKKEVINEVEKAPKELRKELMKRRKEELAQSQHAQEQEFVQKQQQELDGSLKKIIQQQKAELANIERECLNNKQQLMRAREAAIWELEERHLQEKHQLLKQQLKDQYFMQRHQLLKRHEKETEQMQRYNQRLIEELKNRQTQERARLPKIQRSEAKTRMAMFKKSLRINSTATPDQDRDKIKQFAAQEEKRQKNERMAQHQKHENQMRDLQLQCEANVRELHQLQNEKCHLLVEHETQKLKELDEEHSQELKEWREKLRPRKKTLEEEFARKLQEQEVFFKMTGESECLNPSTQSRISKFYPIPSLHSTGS
Chain of UniProt Q9H1R3 (whole entry, looked up): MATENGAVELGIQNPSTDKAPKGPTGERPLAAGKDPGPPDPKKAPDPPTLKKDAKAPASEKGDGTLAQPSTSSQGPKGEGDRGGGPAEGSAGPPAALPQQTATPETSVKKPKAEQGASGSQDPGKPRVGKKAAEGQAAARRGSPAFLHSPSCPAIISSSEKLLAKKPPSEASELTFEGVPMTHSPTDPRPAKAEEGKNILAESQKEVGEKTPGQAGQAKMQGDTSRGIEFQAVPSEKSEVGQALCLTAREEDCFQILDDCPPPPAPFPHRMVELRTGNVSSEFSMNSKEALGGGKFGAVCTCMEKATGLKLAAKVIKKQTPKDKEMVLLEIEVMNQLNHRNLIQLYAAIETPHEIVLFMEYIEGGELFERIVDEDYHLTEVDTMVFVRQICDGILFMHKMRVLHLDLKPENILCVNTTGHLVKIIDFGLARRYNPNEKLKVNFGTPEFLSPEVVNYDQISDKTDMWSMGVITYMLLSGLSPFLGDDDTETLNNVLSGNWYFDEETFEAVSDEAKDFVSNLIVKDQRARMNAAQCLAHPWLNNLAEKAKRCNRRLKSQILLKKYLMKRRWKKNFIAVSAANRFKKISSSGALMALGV

Set 1
SMILES: O=C(NCc1ncc(C(F)(F)F)cc1Cl)c1ccc2c(c1)C1(CCS(=O)(=O)CC1)[C@@H](C1CC1)N2S(=O)(=O)c1ccc(F)cc1
Effect on: cell-free assay
Technique: competition with immobilised ligand
Concentration: 1 µM
STE20-like serine/threonine-protein kinase (SLK, Homo sapiens, UniProt Q9H2G2) — remaining binding: 100%.
The remaining binding was 73% (1-phosphatidylinositol 3-phosphate 5-kinase (PIKFYVE, Homo sapiens, UniProt Q9Y2I7)).
It gave 100% for remaining binding (Mitogen-activated protein kinase 11 (MAPK11, Homo sapiens, UniProt Q15759)).
It gave 77% for remaining binding (Interleukin-1 receptor-associated kinase 1 (IRAK1, Homo sapiens, UniProt P51617)).
For Serine/threonine-protein kinase NIM1 (NIM1K, Homo sapiens, UniProt Q8IY84): remaining binding read 78%.
For Bone morphogenetic protein receptor type-2 (BMPR2, Homo sapiens, UniProt Q13873): remaining binding read 73%.
The remaining binding was 83% (Myosin light chain kinase 2, skeletal/cardiac muscle (MYLK2, Homo sapiens, UniProt Q9H1R3)).
For Receptor-type tyrosine-protein kinase FLT3 (FLT3, Homo sapiens, UniProt P36888): remaining binding read 100%.
It gave 89% for remaining binding (Death-associated protein kinase 3 (DAPK3, Homo sapiens, UniProt O43293)).
The remaining binding was 99% (Cyclin-dependent kinase 17 (CDK17, Homo sapiens, UniProt Q00537)).

Set 2
Target: Beta-1 adrenergic receptor (ADRB1, Homo sapiens, UniProt P08588)
Chain of UniProt P08588 (whole entry, looked up): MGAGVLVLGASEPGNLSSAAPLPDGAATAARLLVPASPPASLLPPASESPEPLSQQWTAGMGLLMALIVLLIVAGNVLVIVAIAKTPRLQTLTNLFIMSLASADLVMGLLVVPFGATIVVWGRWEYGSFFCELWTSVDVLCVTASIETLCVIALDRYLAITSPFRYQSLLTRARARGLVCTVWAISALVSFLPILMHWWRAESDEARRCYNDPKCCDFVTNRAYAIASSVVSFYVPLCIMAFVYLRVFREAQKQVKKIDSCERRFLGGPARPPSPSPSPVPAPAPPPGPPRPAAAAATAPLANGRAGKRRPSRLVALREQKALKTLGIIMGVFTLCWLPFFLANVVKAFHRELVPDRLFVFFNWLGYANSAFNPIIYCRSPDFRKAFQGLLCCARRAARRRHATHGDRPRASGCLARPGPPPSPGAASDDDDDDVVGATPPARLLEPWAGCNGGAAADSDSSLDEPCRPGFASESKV
Mode: antagonist
`CN(C)c1ccc(C(=C2C=CC(=[N+](C)C)C=C2)c2c(O)c(S(=O)(=O)[O-])cc3cc(S(=O)(=O)O)ccc23)cc1` gave an IC50 of no less than 100 µM.
`OC(c1ccccc1)c1nc(Nc2ccc(F)cc2)n[nH]1` (centres unmarked) has an IC50 of no less than 100 µM.
The IC50 of `Cc1cc(-c2nccc3c(=O)cc(N(C)c4ccccc4)oc23)ccn1` is reported as no less than 100 µM.

Set 3
Cell line: mouse MPNST tumor cells
Technique: high-content immunofluorescence imaging
Item: nuclear SOX9
Concentration: 10 µM
Time: 12 h
Setting: mean of 2 replicates
Baseline: DMSO control
Direction: higher = more nuclear SOX9
For `CCOC(=O)C1CSC(Cc2ccc(OCc3ccc([N+](=O)[O-])cc3)cc2)N1` (centres unmarked), “nuclear SOX9 intensity” read 108 % of DMSO.
Under “nuclear SOX9 intensity”, `CN(C)CCC=C1c2ccccc2CCc2ccccc21` is recorded as 199 % of DMSO.
For `CC(C)c1ccc(C(=O)N=C(N)N)cc1S(C)(=O)=O`, “nuclear SOX9 intensity” read 93.4 % of DMSO.

Set 4
Host: human
Sample: microsomes or S9
Concentration: 2 µM
Time: 0.5 h
`CC(C)S(=O)(=O)CCCn1cc(Br)ccc1=O` has a remaining compound of greater than 99.9%.
`Brc1ccc2c(c1)CCN2Cc1cnc(-c2ccncc2)s1` gave a remaining compound of 60.8%.
`NC(=O)c1cccc2cc(CN3CCN(c4ccccc4Cl)CC3)oc12` has a remaining compound of 79%.
`CS(=O)(=O)N1CCCC1C(=O)Nc1nc2cc3c(cc2s1)OCO3` (centres unmarked) has a remaining compound of 0.0123%.

Some of these lines once more (set 1):
For Receptor-type tyrosine-protein kinase FLT3 (FLT3, Homo sapiens, UniProt P36888): remaining binding read 100%.
